Assay results collected from several papers.
Parts stem from different laboratories: compare values within a part only.
Sequence of UniProt Q05655 (whole entry, looked up): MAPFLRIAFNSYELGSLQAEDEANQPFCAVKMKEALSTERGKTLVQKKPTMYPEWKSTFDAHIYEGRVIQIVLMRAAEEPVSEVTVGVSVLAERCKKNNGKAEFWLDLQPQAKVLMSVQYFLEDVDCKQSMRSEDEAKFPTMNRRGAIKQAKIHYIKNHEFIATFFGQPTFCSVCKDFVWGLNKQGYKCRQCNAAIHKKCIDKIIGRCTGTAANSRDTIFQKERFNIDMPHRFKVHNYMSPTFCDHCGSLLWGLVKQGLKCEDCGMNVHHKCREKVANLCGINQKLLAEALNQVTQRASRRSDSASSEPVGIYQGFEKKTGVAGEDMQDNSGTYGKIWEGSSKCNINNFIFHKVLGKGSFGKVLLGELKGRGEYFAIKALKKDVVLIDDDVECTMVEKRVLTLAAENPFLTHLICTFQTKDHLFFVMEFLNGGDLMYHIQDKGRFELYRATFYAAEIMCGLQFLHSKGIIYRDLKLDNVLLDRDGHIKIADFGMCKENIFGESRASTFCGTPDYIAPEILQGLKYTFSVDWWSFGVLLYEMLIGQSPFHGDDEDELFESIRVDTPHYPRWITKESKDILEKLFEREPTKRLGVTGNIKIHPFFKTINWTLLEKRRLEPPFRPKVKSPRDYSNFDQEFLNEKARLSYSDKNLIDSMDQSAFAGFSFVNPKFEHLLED
Sequence of UniProt Q9Y243 (whole entry, looked up): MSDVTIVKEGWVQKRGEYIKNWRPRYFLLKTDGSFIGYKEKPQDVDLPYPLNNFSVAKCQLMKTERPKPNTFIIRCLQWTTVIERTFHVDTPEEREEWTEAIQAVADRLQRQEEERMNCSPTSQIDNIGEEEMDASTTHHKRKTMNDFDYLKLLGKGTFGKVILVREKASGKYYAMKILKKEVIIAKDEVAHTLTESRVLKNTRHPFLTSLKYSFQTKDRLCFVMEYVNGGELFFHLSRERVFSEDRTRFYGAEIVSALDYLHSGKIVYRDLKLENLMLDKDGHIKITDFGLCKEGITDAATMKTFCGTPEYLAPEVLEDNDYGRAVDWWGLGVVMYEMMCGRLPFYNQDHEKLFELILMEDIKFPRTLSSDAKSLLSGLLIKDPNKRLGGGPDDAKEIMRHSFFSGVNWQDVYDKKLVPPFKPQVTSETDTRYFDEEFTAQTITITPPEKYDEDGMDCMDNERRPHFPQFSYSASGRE
Sequence of UniProt Q6P3R8 (whole entry, looked up): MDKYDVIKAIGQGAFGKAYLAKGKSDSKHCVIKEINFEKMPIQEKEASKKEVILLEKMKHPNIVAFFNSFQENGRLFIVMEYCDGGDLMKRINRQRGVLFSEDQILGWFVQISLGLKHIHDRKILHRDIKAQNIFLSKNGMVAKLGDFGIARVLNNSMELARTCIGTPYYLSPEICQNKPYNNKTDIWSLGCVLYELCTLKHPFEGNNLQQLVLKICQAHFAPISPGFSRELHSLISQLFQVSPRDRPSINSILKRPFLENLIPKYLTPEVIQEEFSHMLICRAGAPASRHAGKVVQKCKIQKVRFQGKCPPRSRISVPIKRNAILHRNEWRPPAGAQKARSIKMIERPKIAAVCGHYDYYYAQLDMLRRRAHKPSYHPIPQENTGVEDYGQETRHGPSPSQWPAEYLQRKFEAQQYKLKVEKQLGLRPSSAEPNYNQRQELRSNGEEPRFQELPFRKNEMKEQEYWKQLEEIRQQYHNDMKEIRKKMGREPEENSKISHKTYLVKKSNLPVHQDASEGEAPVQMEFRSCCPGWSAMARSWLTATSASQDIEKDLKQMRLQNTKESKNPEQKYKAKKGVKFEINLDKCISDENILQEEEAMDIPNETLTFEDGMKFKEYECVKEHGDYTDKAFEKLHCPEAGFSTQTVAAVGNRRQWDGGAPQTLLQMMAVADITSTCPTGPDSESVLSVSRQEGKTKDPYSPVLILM
Sequence of UniProt P41743 (whole entry, looked up): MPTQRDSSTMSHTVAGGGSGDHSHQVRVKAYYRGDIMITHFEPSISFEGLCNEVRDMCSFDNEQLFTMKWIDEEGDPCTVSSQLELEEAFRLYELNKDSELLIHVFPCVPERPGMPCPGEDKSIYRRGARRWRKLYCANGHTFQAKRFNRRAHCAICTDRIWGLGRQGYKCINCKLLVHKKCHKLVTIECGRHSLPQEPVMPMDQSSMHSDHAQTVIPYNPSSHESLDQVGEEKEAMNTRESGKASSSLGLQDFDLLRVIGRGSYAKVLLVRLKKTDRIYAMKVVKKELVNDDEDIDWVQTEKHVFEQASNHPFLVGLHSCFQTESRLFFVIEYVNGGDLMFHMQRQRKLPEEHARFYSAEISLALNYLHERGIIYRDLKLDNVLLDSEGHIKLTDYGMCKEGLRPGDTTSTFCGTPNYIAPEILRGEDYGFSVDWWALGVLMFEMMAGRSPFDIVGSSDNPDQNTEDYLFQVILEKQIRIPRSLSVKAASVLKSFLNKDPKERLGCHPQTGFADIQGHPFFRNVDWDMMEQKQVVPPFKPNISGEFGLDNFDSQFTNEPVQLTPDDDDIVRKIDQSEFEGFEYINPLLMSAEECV
Sequence of UniProt P45985 (whole entry, looked up): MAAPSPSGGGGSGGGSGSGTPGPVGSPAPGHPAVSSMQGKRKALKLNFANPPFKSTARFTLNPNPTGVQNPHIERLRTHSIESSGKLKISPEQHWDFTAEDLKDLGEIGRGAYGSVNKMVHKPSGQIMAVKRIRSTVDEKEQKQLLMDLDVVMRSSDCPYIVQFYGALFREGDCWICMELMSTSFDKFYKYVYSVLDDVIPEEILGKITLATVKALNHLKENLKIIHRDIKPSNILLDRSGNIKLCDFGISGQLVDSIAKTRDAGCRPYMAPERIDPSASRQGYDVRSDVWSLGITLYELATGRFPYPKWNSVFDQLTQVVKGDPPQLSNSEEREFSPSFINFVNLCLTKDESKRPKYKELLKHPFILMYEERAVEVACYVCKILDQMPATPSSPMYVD
Sequence of UniProt Q9H1R3 (whole entry, looked up): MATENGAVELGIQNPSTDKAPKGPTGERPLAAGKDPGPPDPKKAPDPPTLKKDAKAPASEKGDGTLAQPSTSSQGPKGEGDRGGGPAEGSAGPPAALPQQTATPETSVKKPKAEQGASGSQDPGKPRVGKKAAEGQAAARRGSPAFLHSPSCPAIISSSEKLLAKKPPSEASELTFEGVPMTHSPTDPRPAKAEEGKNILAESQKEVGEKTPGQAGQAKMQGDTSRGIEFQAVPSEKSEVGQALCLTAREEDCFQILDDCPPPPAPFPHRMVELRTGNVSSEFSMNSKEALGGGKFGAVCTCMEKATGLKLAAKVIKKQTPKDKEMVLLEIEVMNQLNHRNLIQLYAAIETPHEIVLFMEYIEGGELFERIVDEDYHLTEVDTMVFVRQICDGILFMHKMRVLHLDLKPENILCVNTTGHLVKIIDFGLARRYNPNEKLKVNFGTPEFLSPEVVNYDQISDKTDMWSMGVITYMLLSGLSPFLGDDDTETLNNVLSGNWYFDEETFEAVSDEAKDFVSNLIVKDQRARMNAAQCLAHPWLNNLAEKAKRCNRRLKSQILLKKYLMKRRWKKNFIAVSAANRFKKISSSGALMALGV
Sequence of UniProt O94804 (whole entry, looked up): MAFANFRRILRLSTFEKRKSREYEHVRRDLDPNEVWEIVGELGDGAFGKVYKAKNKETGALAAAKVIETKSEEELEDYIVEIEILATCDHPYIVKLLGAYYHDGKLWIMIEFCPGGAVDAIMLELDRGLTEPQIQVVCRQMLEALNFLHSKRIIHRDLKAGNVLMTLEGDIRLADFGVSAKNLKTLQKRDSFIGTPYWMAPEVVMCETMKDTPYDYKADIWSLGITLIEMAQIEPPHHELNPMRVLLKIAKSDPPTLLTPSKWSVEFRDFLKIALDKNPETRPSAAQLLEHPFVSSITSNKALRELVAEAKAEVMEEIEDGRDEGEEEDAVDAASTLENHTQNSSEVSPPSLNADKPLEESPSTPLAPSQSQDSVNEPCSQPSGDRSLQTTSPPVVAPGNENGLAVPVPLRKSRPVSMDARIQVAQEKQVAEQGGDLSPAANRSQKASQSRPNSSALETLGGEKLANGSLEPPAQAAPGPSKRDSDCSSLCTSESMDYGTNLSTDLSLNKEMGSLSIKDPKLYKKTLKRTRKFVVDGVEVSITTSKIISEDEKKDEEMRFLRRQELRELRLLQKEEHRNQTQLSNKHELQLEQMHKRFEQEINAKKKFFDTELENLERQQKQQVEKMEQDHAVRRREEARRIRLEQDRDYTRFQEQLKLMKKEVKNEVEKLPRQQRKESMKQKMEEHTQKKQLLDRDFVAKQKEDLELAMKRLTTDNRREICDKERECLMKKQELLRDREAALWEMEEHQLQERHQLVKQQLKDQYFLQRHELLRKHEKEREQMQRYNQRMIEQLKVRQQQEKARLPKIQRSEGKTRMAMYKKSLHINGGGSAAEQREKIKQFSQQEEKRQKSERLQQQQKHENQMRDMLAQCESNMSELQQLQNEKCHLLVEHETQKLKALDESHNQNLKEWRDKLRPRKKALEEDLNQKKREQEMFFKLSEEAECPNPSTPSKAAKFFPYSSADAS
Sequence of UniProt Q8N752 (whole entry, looked up): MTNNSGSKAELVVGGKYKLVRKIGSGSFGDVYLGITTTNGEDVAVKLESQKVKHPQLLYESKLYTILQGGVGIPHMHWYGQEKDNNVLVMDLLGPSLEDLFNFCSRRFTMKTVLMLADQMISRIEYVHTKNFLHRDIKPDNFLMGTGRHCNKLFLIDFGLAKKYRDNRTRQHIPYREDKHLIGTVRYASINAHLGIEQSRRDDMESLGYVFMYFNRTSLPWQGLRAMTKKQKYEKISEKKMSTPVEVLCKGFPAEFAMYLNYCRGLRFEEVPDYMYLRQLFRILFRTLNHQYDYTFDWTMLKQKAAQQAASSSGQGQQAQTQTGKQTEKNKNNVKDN

Series 1
Species: mouse
Matrix: microsomes or S9
Tested at: 2 µM
Time: 0.5 h
Structure (SMILES) | remaining compound [%]
Cc1cccc(-c2c(-n3cncn3)nc3ccccc3c2O)c1 | 89.1
O=C(C[C@H]1CCC[C@@H](N2CCCC2)[C@@H]1C(=O)c1cccs1)c1cccs1 | 0.172
Cc1cc(=O)[nH]c(-n2nc(C)cc2NC(=O)C(C)(C)Oc2ccc(Cl)cc2)n1 | 27.8
Cc1ncsc1CC[S+]([O-])c1ccc(S(C)(=O)=O)cc1 (stereo not drawn) | 79.2
CCOc1ccc(Nc2c(-c3cccc(O)c3)nc3ccccn23)cc1 | 0.122
O=C(NC1CCCCC1)c1cnn2c(=O)cc(-c3ccc(F)cc3F)[nH]c12 | 17.3
Cc1nc(-c2ccncc2)nc(NCCCCn2ccccc2=O)c1C | 0.104
COC(=O)c1c(OC)cc2c(c1C)Oc1c(Cl)c(O)c(Cl)c(C)c1C(=O)O2 | > 99

Series 2
SMILES: CC(C)n1cnc(-c2ccc(F)cc2)c1-c1ncc(C(=O)Nc2ccc(N3CCN(C)CC3)cc2)[nH]1
Technique: phase 2a trial
Species: idiopathic pulmonary fibrosis patients
test | setting | adverse event incidence [%]
item: weight decreased | 30 mg once daily, grade 2 | 0
item: infection | dose not given, grade 3, all arms pooled | 0
item: ventricular extrasystoles | dose not given, grade 4, all arms pooled | 0
item: chronic gastritis | 60 mg once daily, grade 4 | 0
item: hepatic enzyme abnormal | dose not given, grade 3, all arms pooled | 0
item: synovitis | dose not given, grade 3, all arms pooled | 0
item: infection | 30 mg once daily, grade 2 | 0

Series 3
Structure (SMILES): CC(=O)c1c(NS(C)(=O)=O)c2cc(-c3ccc(Cl)cc3)c(-c3ccc(Cl)cc3Cl)nc2n(C)c1=O
Read-out: cell-free assay
Technique: competition with immobilised ligand
Tested at: 1 µM
target | remaining binding [%]
MAP2K1 (Homo sapiens, UniProt Q02750) | 81
CSNK1D (Homo sapiens, UniProt P48730) | 100
MAP3K1 (Homo sapiens, UniProt Q13233) | 94
EGFR (Homo sapiens, UniProt P00533, del746-750) | 100
CSNK1A1L (Homo sapiens, UniProt Q8N752) | 100
MAP2K4 (Homo sapiens, UniProt P45985) | 89
MET (Homo sapiens, UniProt P08581, M1250T) | 90
STK11 (Homo sapiens, UniProt Q15831) | 100
Tyrosine-protein kinase ABL1, non-phosphorylated (ABL1, Homo sapiens, UniProt P00519, F317L) | 75
GSK3B (Homo sapiens, UniProt P49841) | 97
STK36 (Homo sapiens, UniProt Q9NRP7) | 100
DMPK (Homo sapiens, UniProt Q09013) | 89
STK10 (Homo sapiens, UniProt O94804) | 100
Non-receptor tyrosine-protein kinase TYK2, JH1 (TYK2, Homo sapiens, UniProt P29597) | 94
MAP3K4 (Homo sapiens, UniProt Q9Y6R4) | 95
NEK5 (Homo sapiens, UniProt Q6P3R8) | 100
FGFR1 (Homo sapiens, UniProt P11362) | 97
STK16 (Homo sapiens, UniProt O75716) | 100
MAP3K6 (Homo sapiens, UniProt O95382) | 83
MYLK2 (Homo sapiens, UniProt Q9H1R3) | 98
CSNK2A2 (Homo sapiens, UniProt P19784) | 100
BMP2K (Homo sapiens, UniProt Q9NSY1) | 100

Series 4
Structure (SMILES): COc1cc2ncnc(Nc3ccc(OCc4ccccc4)cc3)c2cc1OC
Read-out: enzyme activity
Action: inhibitor
Tested at: 0.5 µM
Baseline: control
target | remaining activity
CHEK1 (Homo sapiens, UniProt O14757) | 101%
WNK2 (Homo sapiens, UniProt Q9Y3S1) | 91.6%
MAP4K2 (Homo sapiens, UniProt Q12851) | 114%
LYN (Homo sapiens, UniProt P07948) | 91.2%
MAPK13 (Homo sapiens, UniProt O15264) | 103%
PRKG1 (Homo sapiens, UniProt Q13976) | 99.3%
EPHA5 (Homo sapiens, UniProt P54756) | 105%
PRKCI (Homo sapiens, UniProt P41743) | 101%
BTK (Homo sapiens, UniProt Q06187) | 90.6%
PRKCD (Homo sapiens, UniProt Q05655) | 101%
AKT3 (Homo sapiens, UniProt Q9Y243) | 103%
CSNK2A1 (Homo sapiens, UniProt P68400) | 95.8%
CSNK1A1 (Homo sapiens, UniProt P48729) | 105%
LRRK2 (Homo sapiens, UniProt Q5S007) | 92.2%

Repeated from above (series 4):
target | remaining activity
AKT3 (Homo sapiens, UniProt Q9Y243) | 103%
WNK2 (Homo sapiens, UniProt Q9Y3S1) | 91.6%
EPHA5 (Homo sapiens, UniProt P54756) | 105%
BTK (Homo sapiens, UniProt Q06187) | 90.6%
